# Results pooled from the literature.
# Numbered parts are unrelated; each lists some results of a single study. Substitutions count along the parent as printed.

# Sample 1
# Target: ABI1, truncated, D143A, DHFR fusion (Arabidopsis thaliana)
# Method: DHFR PCA, deep sequencing
# Medium: yeast
# Notes: methotrexate growth selection, single substitutions
# Added: (+)-ABA 2500 µM
# Relative to: wild-type fitted maximum
# Direction: higher = stronger binding
# Parent: PYL1, truncated, DHFR fusion (Arabidopsis thaliana); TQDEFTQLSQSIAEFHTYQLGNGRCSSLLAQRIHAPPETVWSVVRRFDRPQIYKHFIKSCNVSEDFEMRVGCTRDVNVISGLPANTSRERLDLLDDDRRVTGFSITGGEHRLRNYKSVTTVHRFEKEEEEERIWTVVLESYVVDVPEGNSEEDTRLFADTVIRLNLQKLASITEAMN; partner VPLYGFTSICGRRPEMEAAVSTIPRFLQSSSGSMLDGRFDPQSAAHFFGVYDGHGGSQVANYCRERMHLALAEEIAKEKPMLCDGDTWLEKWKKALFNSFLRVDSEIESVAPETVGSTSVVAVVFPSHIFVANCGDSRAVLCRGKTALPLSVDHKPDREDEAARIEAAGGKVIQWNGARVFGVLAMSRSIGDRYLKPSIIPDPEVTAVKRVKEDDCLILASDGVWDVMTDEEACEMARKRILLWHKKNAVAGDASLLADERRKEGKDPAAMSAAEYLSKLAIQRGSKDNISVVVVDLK
Change,relative binding score
Q167S,98.3%
E130Y,106%
G81W,7.35%
G107R,92.9%
S27Q,99.7%
T17V,92.8%
V43K,93.4%
R155W,68.3%
A175H,95.3%

# Sample 2
# Target: Sal-like protein 4, full length isoform A (SALL4, Homo sapiens, UniProt Q9UJQ4, residues 1-1053)
# Chain of UniProt Q9UJQ4 (whole entry, looked up): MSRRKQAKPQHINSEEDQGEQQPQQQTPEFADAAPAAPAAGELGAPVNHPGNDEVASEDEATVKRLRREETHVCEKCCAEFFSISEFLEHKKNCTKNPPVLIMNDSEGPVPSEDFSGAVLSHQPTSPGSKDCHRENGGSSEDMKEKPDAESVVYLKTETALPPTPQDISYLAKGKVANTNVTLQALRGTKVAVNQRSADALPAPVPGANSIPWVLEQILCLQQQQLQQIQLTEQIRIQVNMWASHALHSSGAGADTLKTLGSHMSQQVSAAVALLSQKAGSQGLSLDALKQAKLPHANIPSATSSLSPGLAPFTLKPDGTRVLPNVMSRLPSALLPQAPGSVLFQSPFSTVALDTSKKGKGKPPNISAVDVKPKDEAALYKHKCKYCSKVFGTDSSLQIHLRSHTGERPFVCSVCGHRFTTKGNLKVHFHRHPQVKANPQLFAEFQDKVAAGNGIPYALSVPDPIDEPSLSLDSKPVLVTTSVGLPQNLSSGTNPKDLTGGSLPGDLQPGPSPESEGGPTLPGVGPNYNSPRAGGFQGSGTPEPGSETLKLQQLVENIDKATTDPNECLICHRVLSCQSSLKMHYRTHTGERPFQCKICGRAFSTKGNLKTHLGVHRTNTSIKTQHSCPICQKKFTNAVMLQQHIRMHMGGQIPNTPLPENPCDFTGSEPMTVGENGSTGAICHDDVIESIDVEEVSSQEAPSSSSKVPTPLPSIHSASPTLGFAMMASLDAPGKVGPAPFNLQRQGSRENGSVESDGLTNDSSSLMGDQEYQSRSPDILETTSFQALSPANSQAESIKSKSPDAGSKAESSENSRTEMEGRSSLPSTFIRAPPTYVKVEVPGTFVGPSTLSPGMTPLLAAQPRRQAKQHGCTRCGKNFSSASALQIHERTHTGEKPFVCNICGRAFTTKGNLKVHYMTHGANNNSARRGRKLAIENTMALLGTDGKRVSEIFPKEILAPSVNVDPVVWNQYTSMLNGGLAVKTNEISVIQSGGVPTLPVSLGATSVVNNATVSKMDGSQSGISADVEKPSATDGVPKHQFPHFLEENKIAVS
# Method: universal PBM
# Form: double-stranded DNA, one strand shown
# Medium: in vitro
# Concentration: 600 nM
# Notes: 8-mer, flanks averaged, mean of replicates
# Direction: higher = stronger binding
Strand,E-score
AGCTTAAT,0.188
AAAAATGA,0.393
GCGTTCAA,-0.0425
ATAGAACG,0.217
AAGACCCA,-0.246
AGCTACAT,0.0735
GACATGAA,0.247
CAGTGGCC,-0.306
GGTATTCA,0.154

# Sample 3
# Target: CCNB3, cyclin fold, Cln2 fusion (human)
# Method: yeast growth competition, sequencing
# Medium: yeast
# Notes: weak parent motif
# Relative to: not given
# Direction: higher = stronger binding
# Parent: RB1 docking peptide (human); PKPLKKLRFDIEG
Change,normalised enrichment score
PKPLYKLRFDIEG [K5Y],0.406
PKPLKKLRFSIEG [D10S],-0.437
VKPLKKLRFDIEG [P1V],-0.0765
PKPLGKLRFDIEG [K5G],0.4
PMPLKKLRFDIEG [K2M],0.617
PKPLKKLRFHIEG [D10H],0.171
WKPLKKLRFDIEG [P1W],0.203
PKPLKKLRFDIEY [G13Y],-0.247

# Single results of other studies
Substance,target,assay,test system,setting,how to read,quantity,result
"PhoQ, residues 284 288 289 292 302 303 NLGVHL","PhoP, residues 12 14 15 18 19 LYFRQ (Escherichia coli, UniProt P23836)","Sort-seq, refers to: YFP reporter",E. coli,"PhoQ-PhoP variant library, added: 10 µM Mg2+","relative to: high Mg2+ state, higher = stronger signaling",fold induction,3.22
